{"data": "Results from different studies", "note": "Compare with care: the assays were run in different laboratories. ± marks the error that the study gave."}
{"SMILES": "COc1ccc(S(=O)(=O)n2nc(OC(=O)c3ccccc3)cc2N)cc1", "target": "dengue virus 2 protease S135A", "test": "ESI-TOF MS", "setting": "20 µM, 1 h, 25 °C", "how to read": "baseline: DMSO control", "endpoint": "protein mass shift", "result": "0 Da"}
{"SMILES": "O=C(Oc1nsnc1N1CCOCC1)N1CCOCC1", "target": "trypsin", "test": "enzyme activity, inhibitor, gel-based", "setting": "up to 300 µM, together with: denatured BSA substrate", "endpoint": "inhibition", "result": "no inhibition"}
{"SMILES": "C[C@H](N)C(=O)N[C@@H](CO)C(=O)N[C@@H](C)C(=O)N[C@H]1CSC(=O)[C@H](Cc2ccccc2)NC(=O)[C@H](Cc2ccc(O)cc2)NC(=O)[C@H](C)NC(=O)[C@H](CO)NC1=O", "target": "AgrC-II", "test": "inhibitor, GFP reporter", "system": "Staphylococcus epidermidis, agr group-II reporter", "setting": "100 nM", "endpoint": "AgrC-II activity", "result": "inhibited"}
{"SMILES": "Cc1ncsc1-c1ccc(CNC(=O)[C@@H]2C[C@@H](O)CN2C(=O)[C@@H](NC(=O)CN2CCN(C3CN(CCNC(=O)c4cc5c(cc4CS(C)(=O)=O)-c4cn(C)c(=O)c6[nH]cc(c46)CN5c4ncc(F)cc4F)C3)CC2)C(C)(C)C)cc1", "target": "Spodoptera frugiperda BRD3", "test": "degrader, targeted LC-MS", "system": "Sf9", "setting": "1 µM, 24 h", "endpoint": "degradation", "result": "70%"}
{"SMILES": "CC[C@H]1CN2CCc3c([nH]c4cccc(OC)c34)[C@H]2C[C@@H]1/C(=C\\OC)C(=O)OC", "target": "rabbit anti-mitragynine polyclonal antibody", "test": "antigen binding, competitor, competitive indirect ELISA", "setting": "0.001 to 50.0 µg/mL", "endpoint": "IC50", "result": "2.27 µg/mL"}
{"SMILES": "CC[C@H](C)[C@H](NC(=O)[C@H](CCCNC(=N)N)NC(=O)[C@H](CCCNC(=N)N)NC(=O)[C@H](CC(C)C)NC(=O)[C@H](Cc1ccccc1)NC(=O)CNC(=O)CNC(=O)[C@@H](N)Cc1ccc(O)cc1)C(=O)N[C@@H](CCCNC(=N)N)C(=O)N1CCC[C@H]1C(=O)N[C@@H](CCCCN)C(=O)N[C@@H](CC(C)C)C(=O)N[C@@H](CCCCN)C(=O)N[C@@H](Cc1c[nH]c2ccccc12)C(=O)N[C@@H](CC(=O)O)C(=O)N[C@@H](CC(N)=O)C(=O)N[C@@H](CCC(N)=O)C(=O)O", "target": "Rana pipiens delta opioid receptor", "test": "agonist", "system": "HEK-293T", "endpoint": "EC50", "result": "1700 nM"}
{"SMILES": "CCS(=O)(=O)[C@H]1[C@H](O)[C@@H](N)[C@@H](O[C@H]2[C@H](O[C@@H]3O[C@H](CO)[C@@H](O[C@H]4O[C@@H](CN)[C@@H](O)[C@H](O)[C@H]4N)[C@H]3O)[C@@H](O)[C@H](N)C[C@@H]2N)O[C@@H]1CO", "target": "bacterial hybrid ribosome, human mitochondrial A1555G A site", "test": "cell-free translation", "how to read": "baseline: A1555G hybrid over wild-type bacterial", "endpoint": "selectivity ratio", "result": 21}
{"SMILES": "CCCCCCCCC(=O)NCc1ccc(O)c(OC)c1", "target": "mouse mAb 1-G12", "test": "antibody binding, indirect competitive ELISA", "setting": "together with: coating antigen 4-OVA", "endpoint": "IC50", "result": "0.178 µg/mL"}
{"SMILES": "NC[C@@H]1O[C@H](O[C@H]2[C@@H](O)[C@H](O[C@@H]3[C@@H](O)[C@H](N)C[C@H](N)[C@H]3O[C@H]3O[C@H](CO)[C@@H](CCO)[C@H](O)[C@H]3N)O[C@@H]2CO)[C@H](N)[C@@H](O)[C@@H]1O", "target": "bacterial hybrid ribosome, human mitochondrial A1555G A site", "test": "cell-free translation", "how to read": "baseline: A1555G hybrid over wild-type bacterial", "endpoint": "selectivity ratio", "result": 833}
{"SMILES": "CCO[C@H]1[C@H](O)[C@@H](N)[C@@H](O[C@H]2[C@H](O[C@@H]3O[C@H](CO)[C@@H](O[C@H]4O[C@@H](CN)[C@@H](O)[C@H](O)[C@H]4N)[C@H]3O)[C@@H](O)[C@H](N)C[C@@H]2N)O[C@@H]1CO", "target": "Mycobacterium smegmatis ribosome G1491C", "test": "translation, cell-free translation", "how to read": "baseline: G1491C mutant over wild type", "endpoint": "IC50 ratio", "result": 3000}
{"SMILES": "CCCS[C@H]1[C@H](O)[C@@H](N)[C@@H](O[C@H]2[C@H](O[C@@H]3O[C@H](CO)[C@@H](O[C@H]4O[C@@H](CN)[C@@H](O)[C@H](O)[C@H]4N)[C@H]3O)[C@@H](O)[C@H](N)C[C@@H]2N)O[C@@H]1CO", "target": "bacterial hybrid ribosome, human mitochondrial A1555G A site", "test": "cell-free translation", "how to read": "baseline: A1555G hybrid over wild-type bacterial", "endpoint": "selectivity ratio", "result": 1570}
{"SMILES": "CC(C)C[C@H](NC(=O)[C@H](C)NC(=O)[C@H](CCCCN)NC(=O)[C@H](CCCNC(=N)N)NC(=O)[C@H](CCC(=O)O)NC(=O)[C@H](C)NC(=O)[C@H](CCC(=O)O)NC(=O)[C@H](CCCCN)NC(=O)[C@H](CCCCN)NC(=O)[C@H](CC(=O)O)NC(=O)[C@H](Cc1c[nH]cn1)NC(=O)[C@H](CC(=O)O)NC(=O)[C@H](Cc1c[nH]cn1)NC(=O)[C@H](CCCNC(=N)N)NC(=O)[C@H](CCC(=O)O)NC(=O)[C@H](CO)NC(=O)[C@H](CCCCN)NC(=O)[C@H](CC(C)C)NC(=O)[C@H](CCCNC(=N)N)NC(=O)[C@H](CCC(=O)O)NC(=O)[C@H](CC(C)C)NC(=O)[C@H](CCC(=O)O)NC(=O)[C@H](C)NC(=O)[C@H](CCC(=O)O)NC(=O)[C@H](CCC(=O)O)NC(=O)[C@H](C)NC(=O)[C@H](C)NC(=O)[C@H](CCC(=O)O)NC(=O)[C@H](CC(N)=O)NC(=O)[C@H](CCCCN)NC(=O)[C@H](CC(C)C)NC(=O)[C@H](CCCNC(=N)N)NC(=O)[C@H](CCC(N)=O)NC(=O)[C@H](CC(C)C)NC(=O)[C@H](CCC(=O)O)NC(=O)[C@H](C)NC(=O)[C@H](CC(=O)O)NC(=O)[C@H](C)NC(=O)[C@@H](NC(=O)[C@H](CC(C)C)NC(=O)[C@H](CCCCN)NC(=O)[C@H](CCC(=O)O)NC(=O)[C@@H](NC(=O)[C@H](CO)NC(=O)CN)C(C)C)[C@@H](C)O)C(=O)N[C@@H](CCC(=O)O)C(=O)N[C@@H](CC(=O)O)C(=O)N[C@@H](CCCCN)C(=O)N[C@@H](CC(C)C)C(=O)N[C@@H](C)C(=O)N[C@@H](CC(=O)O)C(=O)N[C@@H](Cc1ccc(O)cc1)C(=O)O", "target": "human K2 plasminogen complex", "test": "analytical ultracentrifugation", "setting": "pH 7.4, 25 °C", "endpoint": "molecular mass", "result": "16200 ± 1000 Da"}
{"SMILES": "CC(C)CC(C)n1ccn2cc(C(=O)NCc3ccc(F)cc3F)c(=O)c(O)c2c1=O (centres unmarked)", "target": "HIV-1 integrase wild type", "test": "viral replication", "system": "HOS, HIV-1", "setting": "single-round vector", "endpoint": "EC50", "result": "4.2 ± 1 nM"}
{"SMILES": "CC/C(=C\\CC[C@H](C)C[C@@H](C)CC[C@H](O)[C@H](C)C(=O)CC(O)[C@H](C)[C@@H](C)OC(=O)C[C@@H](O)C1=C(C)C(=O)OC1=O)C(O)CC(=O)O (some centres unmarked)", "target": "PP1 (human)", "test": "enzyme activity", "system": "MCF7", "setting": "50 µM, 4 h", "how to read": "baseline: untreated", "endpoint": "inhibition", "result": "60%"}
{"SMILES": "O=C(O)COc1ccc(Cl)cc1", "target": "Torpedo CLC-0 Y512A C212S", "test": "chloride current, inhibitor, patch clamp", "setting": "100 mV, unit not given", "how to read": "baseline: wild type", "endpoint": "affinity increase", "result": "~10"}
{"SMILES": "N[C@@H](Cc1ccc(C(=O)NCCc2ccc(-c3ccccc3)cc2)cc1)C(=O)N1Cc2ccccc2C[C@H]1C(=O)O", "target": "mu opioid receptor, guinea pig", "test": "antagonist", "system": "guinea pig ileum", "endpoint": "Ke", "result": "5.38 ± 0.38 µM"}
{"SMILES": "NC[C@@H]1O[C@H](O[C@H]2[C@@H](O)[C@H](O[C@@H]3[C@@H](O)[C@H](N)C[C@H](N)[C@H]3O[C@H]3O[C@H](CO)[C@@H](SCCF)[C@H](O)[C@H]3N)O[C@@H]2CO)[C@H](N)[C@@H](O)[C@@H]1O", "target": "bacterial hybrid ribosome, human mitochondrial A site", "test": "cell-free translation", "how to read": "baseline: mitochondrial hybrid over wild-type bacterial", "endpoint": "selectivity ratio", "result": 1700}
{"SMILES": "O=C(N[C@@H](Cn1cncn1)c1ccc(Cl)cc1Cl)c1ccc(-c2nnc(-c3ccccc3)o2)cc1", "target": "Leishmania infantum CYP51", "setting": "concentration not given", "endpoint": "remaining activity", "result": "17 ± 1.2%"}
{"SMILES": "CC(=O)N1c2ccc(-c3ccc(C(=O)NCCN4CC(N5CCN(CC(=O)N[C@H](C(=O)N6C[C@@H](O)C[C@H]6C(=O)NCc6ccc(-c7scnc7C)cc6)C(C)(C)C)CC5)C4)cc3)cc2[C@H](Nc2ccc(Cl)cc2)C[C@@H]1C", "target": "Spodoptera frugiperda BRD3", "test": "degrader, targeted MS", "system": "Spodoptera frugiperda L5 larvae", "setting": "injection, 0.1 nmol/mg", "how to read": "baseline: DMSO", "endpoint": "BRD3 peptide level increase", "result": "20%"}
{"SMILES": "CC[S+]([O-])C1C(CO)OC(OC2C(N)CC(N)C(O)C2OC2OC(CO)C(OC3OC(CN)C(O)C(O)C3N)C2O)C(N)C1O (mixture of isomers)", "target": "bacterial hybrid ribosome, human cytoplasmic A site", "test": "cell-free translation", "how to read": "baseline: cytoplasmic hybrid over wild-type bacterial", "endpoint": "selectivity ratio", "result": 246}
{"SMILES": "CC1(C)C(/C=C(\\Cl)C(F)(F)F)C1C(=O)OC(C#N)c1cccc(Oc2ccccc2)c1 (centres unmarked)", "target": "glutathione S-transferase, Vaccinium arctostaphylos fruit", "test": "enzyme activity", "setting": "concentration not given, together with: CDNB and GSH", "endpoint": "inhibition", "result": "inhibited"}
{"SMILES": "Cc1ccc(N2CC3CCC(C2)N3C)cc1C(=O)N[C@H](C)c1cc(-c2cnn(C)c2)nc2ccccc12", "target": "trypsin", "test": "enzyme activity", "setting": "concentration not given", "endpoint": "inhibition", "result": "no inhibition"}
{"SMILES": "CC(C)S[C@H]1[C@H](O)[C@@H](N)[C@@H](O[C@H]2[C@H](O[C@@H]3O[C@H](CO)[C@@H](O[C@H]4O[C@@H](CN)[C@@H](O)[C@H](O)[C@H]4N)[C@H]3O)[C@@H](O)[C@H](N)C[C@@H]2N)O[C@@H]1CO", "target": "bacterial hybrid ribosome, human mitochondrial A1555G A site", "test": "cell-free translation", "how to read": "baseline: A1555G hybrid over wild-type bacterial", "endpoint": "selectivity ratio", "result": 1250}
{"SMILES": "Cc1cc(Nc2nc(C[C@@]3(C(=O)O)CCN(Cc4cccc(Cl)c4F)[C@H](C)C3)cc(C)c2F)[nH]n1", "target": "Aurora kinase A", "test": "phosphorylation, measured: p-AURKA Thr288", "system": "mouse, NCI-H446 xenograft, tumour", "setting": "oral, 10 mg/kg, up to 12 h", "endpoint": "inhibition", "result": "~80%"}
{"SMILES": "CC(C)CS[C@H]1[C@H](O)[C@@H](N)[C@@H](O[C@H]2[C@H](O[C@@H]3O[C@H](CO)[C@@H](O[C@H]4O[C@@H](CN)[C@@H](O)[C@H](O)[C@H]4N)[C@H]3O)[C@@H](O)[C@H](N)C[C@@H]2N)O[C@@H]1CO", "target": "bacterial hybrid ribosome, human mitochondrial A1555G A site", "test": "cell-free translation", "how to read": "baseline: A1555G hybrid over wild-type bacterial", "endpoint": "selectivity ratio", "result": 1500}
{"SMILES": "CCCCCCCCCCCCCCCC(=O)NCCCC[C@H](NC(=O)[C@H](CCCNC(=N)N)NC(=O)[C@H](Cc1ccc(O)cc1)NC(=O)[C@H](CC(C)C)NC(=O)[C@H](CCCNC(=N)N)NC(=O)CNS(=O)(=O)c1ccc(N)cc1)C(N)=O", "target": "70S ribosome (Escherichia coli)", "test": "binding, fluorescence quenching", "endpoint": "Kd", "result": "~0.14 nM"}
{"note": "Repeated from above:"}
{"SMILES": "CC(C)S[C@H]1[C@H](O)[C@@H](N)[C@@H](O[C@H]2[C@H](O[C@@H]3O[C@H](CO)[C@@H](O[C@H]4O[C@@H](CN)[C@@H](O)[C@H](O)[C@H]4N)[C@H]3O)[C@@H](O)[C@H](N)C[C@@H]2N)O[C@@H]1CO", "target": "bacterial hybrid ribosome, human mitochondrial A1555G A site", "test": "cell-free translation", "how to read": "baseline: A1555G hybrid over wild-type bacterial", "endpoint": "selectivity ratio", "result": 1250}
{"SMILES": "NC[C@@H]1O[C@H](O[C@H]2[C@@H](O)[C@H](O[C@@H]3[C@@H](O)[C@H](N)C[C@H](N)[C@H]3O[C@H]3O[C@H](CO)[C@@H](CCO)[C@H](O)[C@H]3N)O[C@@H]2CO)[C@H](N)[C@@H](O)[C@@H]1O", "target": "bacterial hybrid ribosome, human mitochondrial A1555G A site", "test": "cell-free translation", "how to read": "baseline: A1555G hybrid over wild-type bacterial", "endpoint": "selectivity ratio", "result": 833}
{"SMILES": "O=C(N[C@@H](Cn1cncn1)c1ccc(Cl)cc1Cl)c1ccc(-c2nnc(-c3ccccc3)o2)cc1", "target": "Leishmania infantum CYP51", "setting": "concentration not given", "endpoint": "remaining activity", "result": "17 ± 1.2%"}
